Experimental data of several laboratories.
Protocols differ between the studies behind these lines. ± gives the spread as reported.
BCHE: Cholinesterase (BCHE, Homo sapiens, UniProt P06276)
Chain of UniProt P06276 (whole entry, looked up): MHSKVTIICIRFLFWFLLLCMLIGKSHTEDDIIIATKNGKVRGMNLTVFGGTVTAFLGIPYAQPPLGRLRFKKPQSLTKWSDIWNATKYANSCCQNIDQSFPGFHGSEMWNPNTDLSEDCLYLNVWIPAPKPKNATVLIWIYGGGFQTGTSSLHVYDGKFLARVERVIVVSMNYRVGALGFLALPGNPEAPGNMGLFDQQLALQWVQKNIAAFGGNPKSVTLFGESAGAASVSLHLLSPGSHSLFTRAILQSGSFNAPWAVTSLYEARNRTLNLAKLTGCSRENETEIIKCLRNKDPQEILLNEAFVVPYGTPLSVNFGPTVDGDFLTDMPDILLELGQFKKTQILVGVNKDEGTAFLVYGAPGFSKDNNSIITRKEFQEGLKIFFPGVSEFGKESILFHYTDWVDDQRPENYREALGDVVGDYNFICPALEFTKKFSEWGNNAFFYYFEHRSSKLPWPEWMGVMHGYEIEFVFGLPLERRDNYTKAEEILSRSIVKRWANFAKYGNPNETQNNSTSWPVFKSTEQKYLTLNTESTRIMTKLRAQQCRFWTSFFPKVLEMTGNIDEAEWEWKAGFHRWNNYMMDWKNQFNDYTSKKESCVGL
Chain of UniProt P17787 (whole entry, looked up): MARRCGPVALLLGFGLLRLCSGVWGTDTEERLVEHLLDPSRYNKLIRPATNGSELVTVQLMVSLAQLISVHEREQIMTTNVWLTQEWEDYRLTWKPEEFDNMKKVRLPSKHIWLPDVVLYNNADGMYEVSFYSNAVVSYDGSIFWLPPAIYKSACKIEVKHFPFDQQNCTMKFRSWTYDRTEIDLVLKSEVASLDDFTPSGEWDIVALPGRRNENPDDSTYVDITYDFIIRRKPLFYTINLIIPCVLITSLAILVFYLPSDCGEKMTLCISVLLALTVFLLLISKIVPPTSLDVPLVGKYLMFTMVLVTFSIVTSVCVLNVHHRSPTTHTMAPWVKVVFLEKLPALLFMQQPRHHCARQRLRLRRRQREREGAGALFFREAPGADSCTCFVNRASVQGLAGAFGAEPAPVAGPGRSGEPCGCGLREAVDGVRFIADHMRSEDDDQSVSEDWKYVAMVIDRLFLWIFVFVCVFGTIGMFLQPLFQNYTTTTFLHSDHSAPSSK
Chain of UniProt P15823 (whole entry, looked up): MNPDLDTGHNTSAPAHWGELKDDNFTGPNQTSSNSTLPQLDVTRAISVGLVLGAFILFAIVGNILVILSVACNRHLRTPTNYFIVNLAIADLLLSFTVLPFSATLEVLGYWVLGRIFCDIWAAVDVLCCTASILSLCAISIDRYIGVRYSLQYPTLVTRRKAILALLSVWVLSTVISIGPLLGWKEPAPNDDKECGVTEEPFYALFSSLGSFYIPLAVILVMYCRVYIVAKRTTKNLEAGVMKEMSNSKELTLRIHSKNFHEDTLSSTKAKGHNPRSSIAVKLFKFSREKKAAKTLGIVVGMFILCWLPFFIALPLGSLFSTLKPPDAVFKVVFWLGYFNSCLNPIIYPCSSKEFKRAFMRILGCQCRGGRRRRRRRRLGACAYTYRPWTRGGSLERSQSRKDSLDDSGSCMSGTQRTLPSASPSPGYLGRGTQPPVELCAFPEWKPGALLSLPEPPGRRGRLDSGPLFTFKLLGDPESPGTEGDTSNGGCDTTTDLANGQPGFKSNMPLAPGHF
Chain of UniProt Q9Y2H1 (whole entry, looked up): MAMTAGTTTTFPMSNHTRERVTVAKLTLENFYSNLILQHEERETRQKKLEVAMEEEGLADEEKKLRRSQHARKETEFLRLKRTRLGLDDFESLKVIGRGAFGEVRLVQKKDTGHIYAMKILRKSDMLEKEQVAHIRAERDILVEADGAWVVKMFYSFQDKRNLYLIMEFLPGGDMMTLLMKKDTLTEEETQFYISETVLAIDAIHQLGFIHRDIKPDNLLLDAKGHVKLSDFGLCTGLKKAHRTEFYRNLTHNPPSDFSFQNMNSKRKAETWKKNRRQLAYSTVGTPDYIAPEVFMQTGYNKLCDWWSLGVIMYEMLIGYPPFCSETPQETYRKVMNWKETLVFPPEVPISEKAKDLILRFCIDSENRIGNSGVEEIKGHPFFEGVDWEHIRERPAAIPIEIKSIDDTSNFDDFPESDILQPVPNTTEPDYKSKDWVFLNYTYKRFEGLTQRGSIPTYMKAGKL
Chain of UniProt Q15759 (whole entry, looked up): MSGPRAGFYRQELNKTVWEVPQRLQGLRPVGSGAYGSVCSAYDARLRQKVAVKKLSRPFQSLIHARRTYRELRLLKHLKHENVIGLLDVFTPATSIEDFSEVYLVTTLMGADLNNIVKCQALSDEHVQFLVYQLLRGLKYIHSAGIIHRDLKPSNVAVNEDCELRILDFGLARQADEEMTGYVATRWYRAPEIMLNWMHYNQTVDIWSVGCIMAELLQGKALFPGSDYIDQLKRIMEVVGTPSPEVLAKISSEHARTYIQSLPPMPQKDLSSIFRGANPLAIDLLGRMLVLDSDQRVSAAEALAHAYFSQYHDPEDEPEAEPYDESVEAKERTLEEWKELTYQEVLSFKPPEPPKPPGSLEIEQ
Chain of UniProt P11362 (whole entry, looked up): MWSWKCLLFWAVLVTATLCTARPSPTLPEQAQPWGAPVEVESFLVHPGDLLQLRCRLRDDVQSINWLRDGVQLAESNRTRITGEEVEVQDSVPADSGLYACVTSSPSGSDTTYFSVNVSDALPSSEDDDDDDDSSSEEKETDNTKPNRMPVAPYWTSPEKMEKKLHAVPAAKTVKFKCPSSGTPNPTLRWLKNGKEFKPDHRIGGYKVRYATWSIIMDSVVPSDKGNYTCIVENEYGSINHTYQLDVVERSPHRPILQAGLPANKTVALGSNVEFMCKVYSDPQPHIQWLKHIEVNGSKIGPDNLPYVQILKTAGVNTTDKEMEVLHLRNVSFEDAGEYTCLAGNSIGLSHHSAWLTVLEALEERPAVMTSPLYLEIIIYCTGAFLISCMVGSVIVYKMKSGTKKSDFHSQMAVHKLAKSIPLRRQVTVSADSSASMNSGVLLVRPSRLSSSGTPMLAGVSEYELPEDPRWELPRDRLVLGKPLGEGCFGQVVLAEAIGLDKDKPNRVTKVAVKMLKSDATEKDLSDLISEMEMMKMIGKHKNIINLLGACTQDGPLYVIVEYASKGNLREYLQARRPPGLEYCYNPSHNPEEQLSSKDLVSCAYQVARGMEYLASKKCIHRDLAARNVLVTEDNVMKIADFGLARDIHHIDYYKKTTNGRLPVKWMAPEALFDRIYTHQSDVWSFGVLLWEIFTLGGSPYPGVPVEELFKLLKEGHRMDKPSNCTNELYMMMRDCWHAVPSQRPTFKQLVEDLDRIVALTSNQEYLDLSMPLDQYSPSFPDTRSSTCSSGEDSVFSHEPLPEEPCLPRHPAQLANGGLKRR
Chain of UniProt P08173 (whole entry, looked up): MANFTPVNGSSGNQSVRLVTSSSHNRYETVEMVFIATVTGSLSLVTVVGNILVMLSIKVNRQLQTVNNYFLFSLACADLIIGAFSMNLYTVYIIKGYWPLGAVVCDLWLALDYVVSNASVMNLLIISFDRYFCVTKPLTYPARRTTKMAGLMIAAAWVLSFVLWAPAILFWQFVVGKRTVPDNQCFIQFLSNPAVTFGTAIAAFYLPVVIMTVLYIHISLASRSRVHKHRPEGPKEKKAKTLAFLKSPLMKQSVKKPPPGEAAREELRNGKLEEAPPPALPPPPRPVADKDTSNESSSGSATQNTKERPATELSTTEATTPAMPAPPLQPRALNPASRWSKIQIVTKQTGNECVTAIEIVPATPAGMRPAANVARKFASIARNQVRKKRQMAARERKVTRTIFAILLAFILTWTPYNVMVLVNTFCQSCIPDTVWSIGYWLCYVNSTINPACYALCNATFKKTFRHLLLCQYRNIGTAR
Chain of UniProt P43681 (whole entry, looked up): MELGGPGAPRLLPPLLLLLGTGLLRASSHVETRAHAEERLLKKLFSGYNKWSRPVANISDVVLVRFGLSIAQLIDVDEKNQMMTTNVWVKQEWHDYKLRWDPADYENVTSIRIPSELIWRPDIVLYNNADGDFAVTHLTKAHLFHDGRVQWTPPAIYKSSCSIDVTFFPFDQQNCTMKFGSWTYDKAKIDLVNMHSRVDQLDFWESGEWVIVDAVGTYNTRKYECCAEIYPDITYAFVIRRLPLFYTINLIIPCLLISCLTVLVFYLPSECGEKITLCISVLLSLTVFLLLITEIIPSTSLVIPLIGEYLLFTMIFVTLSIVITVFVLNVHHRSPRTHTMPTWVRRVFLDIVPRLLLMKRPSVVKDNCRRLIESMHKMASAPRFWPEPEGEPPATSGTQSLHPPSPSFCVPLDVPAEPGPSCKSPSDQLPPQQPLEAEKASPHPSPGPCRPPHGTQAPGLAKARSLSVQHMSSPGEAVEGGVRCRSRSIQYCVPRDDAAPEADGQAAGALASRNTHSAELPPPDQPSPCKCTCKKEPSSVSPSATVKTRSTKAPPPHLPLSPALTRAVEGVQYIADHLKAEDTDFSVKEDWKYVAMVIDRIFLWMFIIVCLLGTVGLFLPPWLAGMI
Chain of UniProt Q9NS67 (whole entry, looked up): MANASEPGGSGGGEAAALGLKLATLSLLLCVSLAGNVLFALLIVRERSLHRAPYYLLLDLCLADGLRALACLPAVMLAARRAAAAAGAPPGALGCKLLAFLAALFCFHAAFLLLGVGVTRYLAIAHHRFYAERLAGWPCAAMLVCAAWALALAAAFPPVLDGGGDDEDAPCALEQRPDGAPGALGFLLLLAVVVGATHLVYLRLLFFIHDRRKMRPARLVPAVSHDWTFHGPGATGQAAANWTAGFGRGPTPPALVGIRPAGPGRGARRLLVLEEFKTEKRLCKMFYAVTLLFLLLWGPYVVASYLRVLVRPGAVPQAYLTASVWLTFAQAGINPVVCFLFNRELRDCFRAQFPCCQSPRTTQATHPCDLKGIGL

O=C(c1ccc(Cl)cc1)N1CCN2C(=O)N(OC(=O)N3CCOc4ccccc43)C(=O)C2C1 (stereo not drawn)
median protein ratio (FAP (Homo sapiens, UniProt Q12884); MS-based ABPP; SW-620 conditioned medium; 10 µM, 1 h, 37 °C; reference: compound over DMSO, lower = more inhibition): 0.96

O=C(NCCN1CCC2(CC1)C(=O)NCN2c1cccc(F)c1)c1ccc(F)c(F)c1
efficacy (BCHE; concentration not given, Triton): -93.2 ± 9.93%

CN1CCN(c2cc(-c3ccncc3)c(-c3ccc4ccccc4c3)nn2)CC1
inhibition (CHRM4 (Homo sapiens, UniProt P08173); antagonist, FLIPR; 10 µM): 26.3%

CC[C@H](C)[C@H](NC(=O)CNC(=O)[C@@H](N)CCCCN)C(=O)N[C@@H](CC(C)C)C(=O)N[C@@H](CCCCN)C(=O)N[C@@H](CCCNC(=N)N)C(=O)N[C@@H](CCC(=O)O)C(=O)N[C@@H](CCCCN)C(=O)N[C@@H](CCCNC(=N)N)C(=O)N[C@@H](CC(C)C)C(=O)N[C@@H](CCCNC(=N)N)C(=O)N[C@@H](CCCNC(=N)N)C(=O)N[C@@H](CCCCN)C(=O)N[C@@H](CC(N)=O)C(=O)N[C@H](C(=O)N[C@@H](Cc1c[nH]cn1)C(=O)N[C@@H](Cc1c[nH]c2ccccc12)C(=O)N1CCC[C@H]1C(=O)N[C@@H](CCC(=O)O)C(=O)N[C@@H](CCC(=O)O)C(=O)NCC(=O)N[C@@H](CCCCN)C(=O)N[C@@H](CC(C)C)C(=O)N[C@@H](CCCNC(=N)N)C(=O)N[C@@H](CCC(=O)O)C(=O)N[C@@H](Cc1ccccc1)C(=O)N[C@@H](Cc1ccccc1)C(=O)N[C@@H](Cc1ccccc1)C(=O)N[C@@H](Cc1ccccc1)C(=O)N[C@@H](CCC(=O)O)C(=O)N[C@@H](CC(C)C)C(=O)N[C@@H](CC(=O)O)C(=O)N[C@@H](CCC(=O)O)C(=O)N[C@@H](C)C(=O)N[C@@H](CCC(=O)O)C(=O)N[C@@H](CCCNC(=N)N)C(=O)N[C@H](C(=O)N[C@@H](CC(N)=O)C(=O)N[C@H](C(=O)O)C(C)C)C(C)C)C(C)C
log2 fold change (HeLa and HEK-293T cells; phosphatase bead binding, competitive inhibitor, PIB pulldown iBAQ LC-MS/MS, refers to: STRN3; concentration not given; reference: untreated control): -0.27

O=C(Nc1cccnn1)N1CCC(=Cc2cccc(Oc3ccc(C(F)(F)F)cn3)c2)CC1
inhibition (glycine transporter, rat; binding; 10 µM, together with: [3H]glycine): 30%

CC(C)C[C@H](NC(=O)[C@H](CCC(N)=O)NC(=O)[C@H](CO)NC(=O)[C@H](CO)NC(=O)[C@H](CCCNC(=N)N)NC(=O)[C@H](CCCNC(=N)N)NC(=O)[C@H](CCCNC(=N)N)NC(=O)[C@H](CC(C)C)NC(=O)[C@H](Cc1c[nH]cn1)NC(=O)[C@@H](NC(=O)[C@H](CCCCN)NC(=O)[C@H](CCCNC(=N)N)NC(=O)[C@H](CCCNC(=N)N)NC(=O)[C@H](CCCNC(=N)N)NC(=O)[C@H](CCC(N)=O)NC(=O)[C@H](CCCNC(=N)N)NC(=O)[C@H](CCCNC(=N)N)NC(=O)[C@H](CCCCN)NC(=O)[C@H](CCCCN)NC(=O)[C@H](CCCNC(=N)N)NC(=O)CNC(=O)[C@@H](N)Cc1ccc(O)cc1)[C@@H](C)O)C(=O)N[C@@H](CCCCN)C(N)=O
mIPSC frequency (rat CA1 pyramidal neurons; GABAA receptor-mediated mIPSCs; concentration not given): decreased

Oc1ccc2c3c1O[C@H]1[C@@H](O)CC[C@@]4(O)[C@@H](C2)N(CC2CCC2)CC[C@]314
log2 fold change (Probable G-protein coupled receptor 27 (Homo sapiens, UniProt Q9NS67); β-arrestin recruitment, TANGO luminescence, refers to: GPR27; concentration not given; reference: basal luminescence): -0.119

COc1ccc(N2C(=O)N(c3c(C)cccc3Cl)Cc3cnc(Nc4ccc(C5CCN(C)CC5)cc4OC)nc32)nc1
inhibition (STK38L (Homo sapiens, UniProt Q9Y2H1); kinase activity, inhibitor; 0.5 µM, NDR2): 7.47%

CC(C)CN1CCc2ccc(Br)cc21
IC50 (Plasmodium falciparum; W2): 2000 nM

CCOC(=O)C1(CCOc2ccccc2)CCN(Cc2ccc(O)c(Cl)c2)CC1
efficacy (BCHE; concentration not given, Triton): -90.8 ± 8.17%

COc1cc2c(Oc3ccc4[nH]c(C)cc4c3F)ccnc2cc1OCC1(N)CC1
grade 3 Nausea (paediatric recurrent refractory sarcoma; 12 mg): 0%

C[C@@H](O)[C@@H](CO)NC(=O)[C@@H](CCCNC(=N)N)NC(=O)[C@@H]1CCCN1C(=O)[C@@H]1CSSC[C@H](NC(=O)[C@H](Cc2ccccc2)NC(=O)CN2CCN(CC(=O)O)CCN(CC(=O)O)CCN(CC(=O)O)CC2)C(=O)N[C@@H](Cc2ccc(O)cc2)C(=O)N[C@@H](Cc2ccccc2)C(=O)N[C@@H](CCC(N)=O)C(=O)N[C@@H](CC(N)=O)C(=O)N1 [gallium-68 labelled]
tissue uptake (Wistar rat, brain; intravenous, 8 MBq, 60 min, group mean): 0.05 %ID/g

CC[C@H](C)[C@H](NC(=O)[C@H](Cc1ccccc1)NC(=O)[C@H](CCC(=O)O)NC(=O)[C@H](CCCNC(=N)N)NC(=O)[C@H](C)NC(=O)[C@H](C)NC(=O)[C@H](CCC(N)=O)NC(=O)[C@H](CCC(=O)O)NC(=O)[C@H](CCC(=O)O)NC(=O)[C@H](CC(C)C)NC(=O)[C@H](Cc1ccc(O)cc1)NC(=O)[C@H](CO)NC(=O)[C@H](CO)NC(=O)[C@@H](NC(=O)[C@H](CC(=O)O)NC(=O)[C@H](CO)NC(=O)[C@@H](NC(=O)[C@H](Cc1ccccc1)NC(=O)[C@@H](NC(=O)CNC(=O)[C@H](CCC(=O)O)NC(=O)[C@H](C)NC(=O)CCc1c[nH]cn1)[C@@H](C)O)[C@@H](C)O)C(C)C)C(=O)N[C@@H](C)C(=O)N[C@@H](Cc1c[nH]c2ccccc12)C(=O)N[C@@H](CC(C)C)C(=O)N[C@H](C(=O)N[C@@H](CCCNC(=N)N)C(=O)NCC(=O)N[C@@H](CCCNC(=N)N)C(=O)N[C@@H](CCCCNC(=O)COCCOCCNC(=O)COCCOCCNC(=O)CC[C@H](NC(=O)CCCCCCCCCCCCCCCCC(=O)O)C(=O)O)C(=O)NCC(=O)NCC(=O)N[C@@H](CO)C(=O)N[C@@H](CCCCNc1c(NCCCCCN(O)C(=O)CCC(=O)NCCCCCN(O)C(=O)CCC(=O)NCCCCCN(O)C(C)=O)c(=O)c1=O)C(=O)O)C(C)C [zirconium-89 labelled]
tissue uptake (gamma counting; rat, stomach-duodenum content; subcutaneous, 3 nmol/kg, 4 h): 0.13 %ID/g

CN(C(=O)n1cnc(-c2ccc[n+]([O-])c2)c1)C1CCCCC1
inhibition (Adra1b (Rattus norvegicus, UniProt P15823); radioligand binding; 50 µM, together with: [3H]prazosin): 6%

CC[C@H](C)[C@@H]1NC(=O)[C@@H]2CCCN2C(=O)[C@H](CC(C)C)NC(=O)[C@H](CC(C)C)NC(=O)CNC(=O)[C@@H](NC(=O)[C@@H](NC(=O)[C@H](CC(=O)O)NC(=O)CNC(=O)[C@@H](NC(=O)[C@H](C)NC(=O)CNC(=O)[C@H](CCCCN)NC(=O)[C@H](CC(C)C)NC(=O)[C@H](CC(C)C)NC(=O)[C@H](CCCCN)NC(=O)CNC(=O)[C@@H](NC(=O)[C@@H](N)CC(C)C)C(C)C)C(C)C)C(C)C)CSSC[C@@H](C(=O)O)NC1=O
log2 fold change (RNA-seq, refers to: Gipc3; mouse, traumatic brain injury model, frontal cortex and hippocampus; dose not given; reference: TBI alone): -1.26

O=C(Nc1cnccc1Cl)N1CCN(Cc2ccc3c(c2)OC(F)(F)O3)CC1
inhibition (FGFR1 (Homo sapiens, UniProt P11362); kinase activity, inhibitor; 50 µM, human, together with: poly(Glu:Tyr) substrate): -4%

CO[C@H]1C[C@@H]2CC[C@@H](C)[C@@](O)(O2)C(=O)C(=O)N2CCCC[C@H]2C(=O)O[C@H]([C@H](C)C[C@@H]2CC[C@@H](OC(=O)NCCOCCOCCOCCOCCOCCOCCOCCOCCC(=O)N3CCc4cc(Cn5nc(-c6ccc7oc(N)nc7c6)c6c(N)ncnc65)ccc4C3)[C@H](OC)C2)C[C@@H](O)[C@H](C)/C=C(\C)[C@@H](O)[C@@H](OC)C(=O)[C@H](C)C[C@H](C)/C=C/C=C/C=C/1C
incidence of Dyspnea TEAE (patients with advanced solid tumours; intravenous, dose not given, grade ≥3): 3.5%

O=c1nc(-c2ccccn2)sc2ccccc12
efficacy (BCHE; inhibitor): -94.6 ± 2.01%

CP(=O)(O)CCCN
IC50 (Plasmodium falciparum; HB3): 2510 nM

CNC1(c2ccccc2Cl)CCCCC1=O (racemic)
inhibition (Neuronal acetylcholine receptor; alpha4/beta2 (Homo sapiens, UniProt P17787+P43681); radioligand binding, agonist, radioligand displacement; 30 µM): 2%

O=C1NCc2c1c1c3ccccc3[nH]c1c1[nH]c3ccccc3c21
efficacy (BCHE; concentration not given, Triton): -52.9 ± 1.44%

COc1cc(Nc2ncc(F)c(Nc3ccc4c(n3)NC(=O)C(C)(C)O4)n2)cc(OC)c1OC
IC50 (gabapentin binding site; binding): > 10000 nM

CC[C@H]1CN2CC[C@H]1C[C@H]2[C@H](O)c1ccnc2ccc(OC)cc12
efficacy (BCHE; inhibitor): -90.6 ± 15.3%

C[C@H]1CN(c2n[nH]c3nc(N[C@H]4CC[C@H](NS(=O)(=O)CCC(F)(F)F)CC4)ncc23)CCO1
relative abundance (MAPK11 (Homo sapiens, UniProt Q15759); competitor, Kinobeads competition; HEK293, K562, placenta extract; 0.8 µM; reference: vehicle): 0.42

COC1=CC(=O)c2c(O)c3c(c(O)c2C1=O)O[C@]1(Oc2c(cc4cc(C)oc(=O)c4c2O)[C@@H](O)[C@@H]1O)[C@@H]3O
log2 fold change (Staphylococcus aureus; RNA-Seq, refers to: NADH dehydrogenase subunit gene; MRSA ATCC 433000; MIC, 12 h; reference: untreated): 1.36

CCC(C)CNCC(=O)N1CCc2sccc2C1COc1cccc(C)c1 (stereo not drawn)
efficacy (BCHE; concentration not given, Triton): -87.8 ± 8.02%

CC(=O)N1CCC(C(=O)N2CCN3C(=O)c4cc(-c5ccccc5)ccc4NC(=O)C3C2)CC1 (stereo not drawn)
revertants per plate (Salmonella typhimurium; TA98; 15.8 µg/plate): 27

Excerpt of the above:
COc1cc2c(Oc3ccc4[nH]c(C)cc4c3F)ccnc2cc1OCC1(N)CC1
grade 3 Nausea (paediatric recurrent refractory sarcoma; 12 mg): 0%

C[C@@H](O)[C@@H](CO)NC(=O)[C@@H](CCCNC(=N)N)NC(=O)[C@@H]1CCCN1C(=O)[C@@H]1CSSC[C@H](NC(=O)[C@H](Cc2ccccc2)NC(=O)CN2CCN(CC(=O)O)CCN(CC(=O)O)CCN(CC(=O)O)CC2)C(=O)N[C@@H](Cc2ccc(O)cc2)C(=O)N[C@@H](Cc2ccccc2)C(=O)N[C@@H](CCC(N)=O)C(=O)N[C@@H](CC(N)=O)C(=O)N1 [gallium-68 labelled]
tissue uptake (Wistar rat, brain; intravenous, 8 MBq, 60 min, group mean): 0.05 %ID/g

CC[C@H](C)[C@H](NC(=O)[C@H](Cc1ccccc1)NC(=O)[C@H](CCC(=O)O)NC(=O)[C@H](CCCNC(=N)N)NC(=O)[C@H](C)NC(=O)[C@H](C)NC(=O)[C@H](CCC(N)=O)NC(=O)[C@H](CCC(=O)O)NC(=O)[C@H](CCC(=O)O)NC(=O)[C@H](CC(C)C)NC(=O)[C@H](Cc1ccc(O)cc1)NC(=O)[C@H](CO)NC(=O)[C@H](CO)NC(=O)[C@@H](NC(=O)[C@H](CC(=O)O)NC(=O)[C@H](CO)NC(=O)[C@@H](NC(=O)[C@H](Cc1ccccc1)NC(=O)[C@@H](NC(=O)CNC(=O)[C@H](CCC(=O)O)NC(=O)[C@H](C)NC(=O)CCc1c[nH]cn1)[C@@H](C)O)[C@@H](C)O)C(C)C)C(=O)N[C@@H](C)C(=O)N[C@@H](Cc1c[nH]c2ccccc12)C(=O)N[C@@H](CC(C)C)C(=O)N[C@H](C(=O)N[C@@H](CCCNC(=N)N)C(=O)NCC(=O)N[C@@H](CCCNC(=N)N)C(=O)N[C@@H](CCCCNC(=O)COCCOCCNC(=O)COCCOCCNC(=O)CC[C@H](NC(=O)CCCCCCCCCCCCCCCCC(=O)O)C(=O)O)C(=O)NCC(=O)NCC(=O)N[C@@H](CO)C(=O)N[C@@H](CCCCNc1c(NCCCCCN(O)C(=O)CCC(=O)NCCCCCN(O)C(=O)CCC(=O)NCCCCCN(O)C(C)=O)c(=O)c1=O)C(=O)O)C(C)C [zirconium-89 labelled]
tissue uptake (gamma counting; rat, stomach-duodenum content; subcutaneous, 3 nmol/kg, 4 h): 0.13 %ID/g
